{"data": "Published values collected from several papers", "note": "Non-standard residues stand in square brackets, D forms with d. No end group written: not given here."}
{"Substance": "CCCCCCCC(=O)NCCCC[C@H](NC(=O)CCCCCCC)C(=O)N[C@@H](CCCCN)C(=O)N[C@@H](CCCCN)C(=O)N[C@@H](CCCCN)C(=O)N[C@@H](CCCCN)C(=O)N[C@@H](CCCCN)C(N)=O", "test": "RP-HPLC C18", "quantity": "retention time", "value": "12.4 min"}
{"Substance": "CC(C)(C)O[C@H]([C@H](NC(=O)OCC1c2ccccc2-c2ccccc21)C(=O)O)C(F)(F)F", "test": "reversed-phase HPLC", "how to read": "reference: fluorinated over non-fluorinated analogue", "quantity": "retention time difference", "value": "22.1 min"}
{"Substance": "CC(=O)N[C@@H](Cc1ccccc1)C(=O)N[C@@H](CCCCN)C(=O)N[C@@H](Cc1ccccc1)C(=O)N[C@@H](CCC(=O)O)C(=O)N[C@@H](Cc1ccccc1)C(=O)N[C@@H](CCCCN)C(=O)N[C@@H](Cc1ccccc1)C(=O)N[C@@H](CCC(=O)O)C(N)=O", "test": "reverse-phase HPLC C18", "quantity": "retention time", "value": "12.5 min"}
{"Substance": "CCCC[C@H](NC(=O)OCC1c2ccccc2-c2ccccc21)C(=O)O", "test": "reversed-phase HPLC", "how to read": "reference: fluorinated over non-fluorinated analogue", "quantity": "retention time difference", "value": "13.8 min"}
{"Substance": "CC(C)C[C@@H]1NC(=O)[C@H](CCCN)NC(=O)[C@H](C(C)C)NC(=O)[C@@H]2CCCN2C(=O)[C@@H](Cc2ccccc2)NC(=O)[C@H](CC(C)C)NC(=O)[C@H](CCCN)NC(=O)[C@H](C(C)C)NC(=O)[C@@H]2CCCN2C(=O)[C@@H](Cc2ccccc2)NC1=O", "test": "RP-HPLC C8", "conditions": "70 °C, water/acetonitrile TFA gradient", "quantity": "retention time", "value": "33.5 min"}
{"Substance": "CC(=O)N[C@@H](Cc1ccc(-c2ccccc2)cc1)C(=O)N[C@@H](CCCCN)C(=O)N[C@@H](Cc1ccccc1)C(=O)N[C@@H](CCC(=O)O)C(=O)N[C@@H](Cc1ccccc1)C(=O)N[C@@H](CCCCN)C(=O)N[C@@H](Cc1ccccc1)C(=O)N[C@@H](CCC(=O)O)C(N)=O", "test": "reverse-phase HPLC C18", "quantity": "retention time", "value": "13.2 min"}
{"Substance": "CC(=O)N[C@H](CCCCN)C(=O)N[C@H](CC(C)C)C(=O)N[C@@H](CN)C(=O)N[C@H](CO)C(=O)N[C@H](CC(C)C)C(=O)N[C@H](CC(C)C)C(=O)N[C@@H](CN)C(=O)N[C@@H](C(=O)N[C@H](CC(C)C)C(=O)N[C@H](CO)C(=O)N[C@@H](CN)C(=O)N[C@H](C)C(=O)N[C@H](CCCCN)C(=O)N[C@H](C)C(=O)N[C@H](C)C(=O)N[C@H](CCCCN)C(=O)N[C@H](CC(C)C)C(=O)N[C@@H](CN)C(=O)N[C@@H](C(=O)N[C@H](CC(C)C)C(=O)N[C@H](CC(C)C)C(=O)N[C@@H](CN)C(=O)N[C@H](C)C(=O)N[C@H](CC(C)C)C(=O)N[C@H](CO)C(=O)N[C@@H](CN)C(N)=O)[C@H](C)O)[C@H](C)O", "test": "RP-HPLC C8", "conditions": "pH 2, 25 °C, hydrophobicity measure", "quantity": "retention time", "value": "128 min"}
{"Substance": "N=C(N)NCCC[C@H](NC(=O)[C@H](Cc1c[nH]c2ccccc12)NC(=O)[C@H](CCC(N)=O)NC(=O)[C@H](Cc1c[nH]c2ccccc12)NC(=O)[C@H](CCCNC(=N)N)NC(=O)[C@H](Cc1c[nH]c2ccccc12)NC(=O)[C@H](CCC(N)=O)NC(=O)[C@H](Cc1c[nH]c2ccccc12)NC(=O)[C@@H](N)CCCNC(=N)N)C(N)=O", "test": "RP-HPLC, C18 column", "conditions": "water/acetonitrile gradient with TFA", "quantity": "retention time", "value": "6.4 min"}
{"Substance": "Trp-Phe", "test": "RP-HPLC C18", "how to read": "reference: non-fluorinated analogue", "quantity": "retention time shift", "value": "6.13 min"}
{"Substance": "CC(C)C[C@H](NC(=O)[C@H](CC(C)C)NC(=O)[C@@H](N)CCCNC(=N)N)C(=O)N[C@@H](CCCNC(=N)N)C(N)=O", "test": "RP-HPLC, C18 column", "how to read": "higher is more hydrophobic", "quantity": "retention time", "value": "2.9 min"}
{"Substance": "C[C@H](OC(C)(C)C)[C@H](NC(=O)OCC1c2ccccc2-c2ccccc21)C(=O)O", "test": "RP-HPLC C18", "conditions": "25 °C", "how to read": "reference: non-fluorinated analogue", "quantity": "retention time shift per fluorine", "value": "7.37 min"}
{"Substance": "C[C@H](NC(=O)[C@H](CCC(N)=O)NC(=O)[C@H](Cc1c[nH]c2ccccc12)NC(=O)[C@H](CCCNC(=N)N)NC(=O)[C@H](Cc1c[nH]c2ccccc12)NC(=O)[C@H](CCC(N)=O)NC(=O)[C@H](Cc1c[nH]c2ccccc12)NC(=O)[C@@H](N)CCCNC(=N)N)C(=O)N[C@@H](CCCNC(=N)N)C(N)=O", "test": "RP-HPLC C18", "conditions": "hydrophobicity measure", "quantity": "retention time", "value": "5.7 min"}
{"Substance": "N=C(N)NCCC[C@H](NC(=O)[C@H](Cc1c[nH]c2ccccc12)NC(=O)[C@H](CCC(N)=O)NC(=O)[C@H](Cc1c[nH]c2ccccc12)NC(=O)[C@H](CCCNC(=N)N)NC(=O)[C@@H](N)CCCNC(=N)N)C(N)=O", "test": "RP-HPLC, C18 column", "how to read": "higher is more hydrophobic", "quantity": "retention time", "value": "4 min"}
{"Substance": "C[C@H](NC(=O)[C@H](Cc1c[nH]c2ccccc12)NC(=O)[C@H](CCC(N)=O)NC(=O)[C@H](Cc1c[nH]c2ccccc12)NC(=O)[C@@H](N)CCCNC(=N)N)C(=O)N[C@@H](Cc1c[nH]c2ccccc12)C(=O)N[C@@H](CCC(N)=O)C(=O)N[C@@H](Cc1c[nH]c2ccccc12)C(=O)N[C@@H](CCCNC(=N)N)C(N)=O", "test": "RP-HPLC C18", "conditions": "hydrophobicity measure", "quantity": "retention time", "value": "6.7 min"}
{"Substance": "Trp-[Phe(4-F)] (Trp-4-fluoro-Phe; Phe(4-F) = N[C@@H](Cc1ccc(F)cc1)C(=O)O)", "test": "RP-HPLC C18", "conditions": "25 °C", "how to read": "reference: non-fluorinated analogue", "quantity": "retention time shift per fluorine", "value": "6.13 min"}
{"Substance": "CC[C@H](C)[C@H](NC(=O)[C@H](Cc1ccc(O)cc1)NC(=O)[C@@H](N)CC(C)C)C(=O)N[C@@H](CCC(N)=O)C(=O)N[C@@H](Cc1c[nH]c2ccccc12)C(=O)N[C@@H](CC(C)C)C(=O)O", "test": "analytical RP-HPLC", "test system": "C18 column", "quantity": "retention time", "value": "18 to 19 min"}
{"note": "Repeated from above:"}
{"Substance": "CC(=O)N[C@@H](Cc1ccc(-c2ccccc2)cc1)C(=O)N[C@@H](CCCCN)C(=O)N[C@@H](Cc1ccccc1)C(=O)N[C@@H](CCC(=O)O)C(=O)N[C@@H](Cc1ccccc1)C(=O)N[C@@H](CCCCN)C(=O)N[C@@H](Cc1ccccc1)C(=O)N[C@@H](CCC(=O)O)C(N)=O", "test": "reverse-phase HPLC C18", "quantity": "retention time", "value": "13.2 min"}
{"Substance": "CC(=O)N[C@H](CCCCN)C(=O)N[C@H](CC(C)C)C(=O)N[C@@H](CN)C(=O)N[C@H](CO)C(=O)N[C@H](CC(C)C)C(=O)N[C@H](CC(C)C)C(=O)N[C@@H](CN)C(=O)N[C@@H](C(=O)N[C@H](CC(C)C)C(=O)N[C@H](CO)C(=O)N[C@@H](CN)C(=O)N[C@H](C)C(=O)N[C@H](CCCCN)C(=O)N[C@H](C)C(=O)N[C@H](C)C(=O)N[C@H](CCCCN)C(=O)N[C@H](CC(C)C)C(=O)N[C@@H](CN)C(=O)N[C@@H](C(=O)N[C@H](CC(C)C)C(=O)N[C@H](CC(C)C)C(=O)N[C@@H](CN)C(=O)N[C@H](C)C(=O)N[C@H](CC(C)C)C(=O)N[C@H](CO)C(=O)N[C@@H](CN)C(N)=O)[C@H](C)O)[C@H](C)O", "test": "RP-HPLC C8", "conditions": "pH 2, 25 °C, hydrophobicity measure", "quantity": "retention time", "value": "128 min"}
